{"data": "Measured values gathered from unrelated publications", "cell line": "Vero", "note": "Lines come from different studies, so protocols differ."}
{"Compound": "CC[C@@H]1/C=C(\\C)C[C@H](C)C[C@H](OC)[C@H]2O[C@@](O)(C(=O)C(=O)N3CCCC[C@H]3C(=O)O[C@H](/C(C)=C/[C@@H]3CC[C@H](Cl)[C@H](OC)C3)[C@H](C)[C@@H](O)CC1=O)[C@H](C)C[C@@H]2OC", "method": "Alamar Blue", "time": "96 h", "quantity": "CC50", "value": "346 µM"}
{"Compound": "CCSc1c(-c2nc3ccccc3s2)c(N)n(NS(=O)(=O)c2ccccc2)c(=O)c1C#N", "time": "72 h", "quantity": "maximum non-toxic concentration", "value": "120 µg/mL"}
{"Compound": "Cc1ccc(S(=O)(=O)Nc2ncc(-c3nc4ccccc4s3)c(N)n2)cc1", "read-out": "cytotoxicity", "time": "72 h", "quantity": "maximum non-toxic concentration", "value": "110 µg/mL"}
{"Compound": "COc1ccc2c(Cc3ccccc3F)c3[n+](cc2c1OC)CCc1cc2c(cc1-3)OCO2", "read-out": "cytotoxicity", "method": "CCK-8", "time": "24 h", "quantity": "IC50", "value": "32.8 µM"}
{"Compound": "CC[C@]1(O)C[C@@H]2CN(CCc3c([nH]c4ccccc34)[C@@](C(=O)OC)(c3cc4c(cc3OC)N(C)[C@H]3[C@@](O)(C(=O)OC)[C@H](OC(C)=O)[C@]5(CC)C=CCN6CC[C@]43[C@@H]65)C2)C1", "method": "Alamar Blue", "time": "96 h", "quantity": "CC50", "value": "< 0.34 µM"}
{"Compound": "Nc1nc(NS(=O)(=O)c2ccccc2)ncc1-c1nc2ccccc2s1", "read-out": "cytotoxicity", "time": "72 h", "quantity": "maximum non-toxic concentration", "value": "100 µg/mL"}
{"Compound": "CO[C@H]1C[C@@H]2CC[C@@H](C)[C@@](O)(O2)C(=O)C(=O)N2CCCC[C@H]2C(=O)O[C@H]([C@H](C)C[C@@H]2CC[C@@H](O)[C@H](OC)C2)CC(=O)[C@H](C)/C=C(\\C)[C@@H](O)[C@@H](OC)C(=O)[C@H](C)C[C@H](C)/C=C/C=C/C=C/1C", "method": "Alamar Blue", "time": "96 h", "quantity": "CC50", "value": "16.3 µM"}
{"Compound": "CCN(CC)CCCC(C)Nc1ccnc2cc(Cl)ccc12 (stereo not shown)", "read-out": "cytotoxicity", "method": "neutral red", "time": "48 h", "quantity": "IC50", "value": "> 4.76 µg/mL"}
{"Compound": "CSc1c(-c2nc3ccccc3s2)c(N)n(NS(=O)(=O)c2ccc(C)cc2)c(=O)c1C#N", "time": "72 h", "quantity": "maximum non-toxic concentration", "value": "110 µg/mL"}
{"Compound": "COn1cc(-c2ccccc2)c(O)c([C@@H]2O[C@H]([C@H](C)CCOC(C)=O)[C@@H](C)C[C@H]2C)c1=O", "read-out": "cytotoxicity", "method": "neutral red", "time": "48 h", "quantity": "IC50", "value": "> 4.76 µg/mL"}
{"Compound": "COC(=O)N[C@H](C(=O)N1CC2(CC2)C[C@H]1c1ncc(-c2ccc3c(c2)C(F)(F)c2cc(-c4ccc5nc([C@@H]6[C@H]7CC[C@H](C7)N6C(=O)[C@@H](NC(=O)OC)C(C)C)[nH]c5c4)ccc2-3)[nH]1)C(C)C", "method": "Alamar Blue", "time": "96 h", "quantity": "CC50", "value": "34.9 µM"}
{"Compound": "CSc1c(-c2nc3ccccc3[nH]2)c(N)n(NS(=O)(=O)c2ccccc2)c(=O)c1C#N", "time": "72 h", "quantity": "maximum non-toxic concentration", "value": "100 µg/mL"}
{"Compound": "C[C@@H]1CC[C@H]2[C@@H](C)C(=O)O[C@@H]3O[C@@]4(C)CC[C@@H]1[C@]32OO4", "read-out": "cytotoxicity", "method": "neutral red", "time": "48 h", "quantity": "IC50", "value": "> 4.76 µg/mL"}
{"Compound": "CO[C@H]1/C=C/O[C@@]2(C)Oc3c(C)c(O)c4c(c3C2=O)C2=NC3(CCN(CC(C)C)CC3)NC2=C(NC(=O)/C(C)=C\\C=C\\[C@H](C)[C@H](O)[C@@H](C)[C@@H](O)[C@@H](C)[C@H](OC(C)=O)[C@@H]1C)C4=O", "method": "Alamar Blue", "time": "96 h", "quantity": "CC50", "value": "17.3 µM"}
{"Compound": "CCN(CC)CCCC(C)Nc1ccnc2cc(Cl)ccc12 (stereo not shown)", "read-out": "cytotoxicity", "method": "Neutral Red uptake", "time": "48 h", "quantity": "IC50", "value": "> 4.76 µg/mL"}
{"Compound": "Cc1ccc(S(=O)(=O)Nc2nc(N)c(-c3nc4ccccc4s3)c(-c3ccc(Cl)cc3)n2)cc1", "read-out": "cytotoxicity", "time": "72 h", "quantity": "maximum non-toxic concentration", "value": "100 µg/mL"}
{"Compound": "Cc1ccc(S(=O)(=O)Nn2c(N)c(-c3nc4ccccc4s3)c3[nH]nc(N)c3c2=O)cc1", "time": "72 h", "quantity": "maximum non-toxic concentration", "value": "90 µg/mL"}
{"Compound": "O=C(CNc1nc(NS(=O)(=O)c2ccccc2)ncc1-c1nc2ccccc2s1)c1ccc(Cl)cc1", "read-out": "cytotoxicity", "time": "72 h", "quantity": "maximum non-toxic concentration", "value": "110 µg/mL"}
{"Compound": "CC[C@@H](C)[C@H]1O[C@@H](c2c(O)c(-c3ccccc3)cn(O)c2=O)[C@H](C)C[C@@H]1C", "read-out": "cytotoxicity", "method": "neutral red", "time": "48 h", "quantity": "IC50", "value": "1.4 µg/mL"}
{"Compound": "COc1ccc(-c2nc(NS(=O)(=O)c3ccc(C)cc3)nc(N)c2-c2nc3ccccc3s2)cc1", "read-out": "cytotoxicity", "time": "72 h", "quantity": "maximum non-toxic concentration", "value": "90 µg/mL"}
{"Compound": "CCOC(=O)c1cc(C#N)c(=O)n(NS(=O)(=O)c2ccc(C)cc2)c1N", "time": "72 h", "quantity": "maximum non-toxic concentration", "value": "90 µg/mL"}
{"Compound": "Cc1ccc(S(=O)(=O)Nc2nc(N)c(-c3nc4ccccc4s3)c(-c3ccc(F)cc3)n2)cc1", "read-out": "cytotoxicity", "time": "72 h", "quantity": "maximum non-toxic concentration", "value": "100 µg/mL"}
{"Compound": "CCOC(=O)c1cc(C#N)c(=O)n(NS(=O)(=O)c2ccccc2)c1N", "time": "72 h", "quantity": "maximum non-toxic concentration", "value": "90 µg/mL"}
{"Compound": "CO[C@H]1/C=C/O[C@@]2(C)Oc3c(C)c(O)c4c(O)c(c(/C=N/N5CCN(C6CCCC6)CC5)c(O)c4c3C2=O)NC(=O)/C(C)=C\\C=C\\[C@H](C)[C@H](O)[C@@H](C)[C@@H](O)[C@@H](C)[C@H](OC(C)=O)[C@@H]1C", "method": "Alamar Blue", "time": "96 h", "quantity": "CC50", "value": "21.4 µM"}
{"Compound": "COc1ccc(-c2nc(N)nc(N)c2-c2nc3ccccc3s2)cc1", "read-out": "cytotoxicity", "time": "72 h", "quantity": "maximum non-toxic concentration", "value": "80 µg/mL"}
{"note": "For quick reference, copied from above:"}
{"Compound": "CO[C@H]1/C=C/O[C@@]2(C)Oc3c(C)c(O)c4c(O)c(c(/C=N/N5CCN(C6CCCC6)CC5)c(O)c4c3C2=O)NC(=O)/C(C)=C\\C=C\\[C@H](C)[C@H](O)[C@@H](C)[C@@H](O)[C@@H](C)[C@H](OC(C)=O)[C@@H]1C", "method": "Alamar Blue", "time": "96 h", "quantity": "CC50", "value": "21.4 µM"}
{"Compound": "COc1ccc(-c2nc(N)nc(N)c2-c2nc3ccccc3s2)cc1", "read-out": "cytotoxicity", "time": "72 h", "quantity": "maximum non-toxic concentration", "value": "80 µg/mL"}
